Measurements of several laboratories.
Compare with care: the assays were run in different laboratories. Numbers after ± are the reported error.

Molecule | target | test | test system | setting | scale | endpoint | result
CCOC(=O)OC(=O)OCC | TTX-resistant Na channel (sheep heart) |  | sheep heart membranes | 10 mM, 1 h, pH 5.5 or 7.5, room temperature |  | specific [3H]saxitoxin binding abolished | > 50%
carbon monoxide | Clostridium botulinum H-NOX Y139F | binding |  |  |  | Kd | 330 nM
gymnodimine A | nicotinic acetylcholine receptor (Torpedo marmorata) | binding |  | Pecten maximus extract 25 mg/mL, together with: biotin-α-bungarotoxin |  | IC50 | 70.4 ± 13.2 nM
O=[As]c1ccccc1 (stereo not drawn) | guinea pig Y2 receptor |  | CHO-Y2 particulates | 30 µM | reference: control | Y2 receptor density change | ≤ 15%
pinnatoxin G | nicotinic acetylcholine receptor (Torpedo marmorata) | binding |  | Pecten maximus extract 25 mg/mL, together with: biotin-α-bungarotoxin |  | IC50 | 24.7 ± 11.4 nM
O=C([O-])c1ccc[n+]([C@@H]2O[C@H](COP(=O)(O)O)[C@@H](O)[C@H]2O)c1 | nicotinamide mononucleotide adenylyltransferase R133A, His-tagged | substrate |  |  |  | kcat | 0.567 s⁻¹
nitric oxide | Clostridium botulinum H-NOX Y139F | binding | six-coordinate heme-His complex |  |  | Kd | 0.12 nM
pinnatoxin A | nicotinic acetylcholine receptor (Torpedo marmorata) | binding |  | together with: biotin-α-bungarotoxin 80 nM |  | Ki | 23 ± 12.2 nM
CCN1C(=O)C=CC1=O | TTX-resistant Na channel (sheep heart) |  | sheep heart membranes | 50 mM, 2 h, together with: [3H]saxitoxin 20 nM | reference: untreated control | [3H]saxitoxin bound | ~41%
